Experimental data pooled from the literature.
Every numbered part comes from another study and shows a few of its results, in no order. Positions count from the first letter of the parent shown.

Set 1
Target: Sal-like protein 4, full length isoform A (SALL4, Homo sapiens, UniProt Q9UJQ4, residues 1-1053)
UniProt Q9UJQ4, sequence (whole entry, looked up): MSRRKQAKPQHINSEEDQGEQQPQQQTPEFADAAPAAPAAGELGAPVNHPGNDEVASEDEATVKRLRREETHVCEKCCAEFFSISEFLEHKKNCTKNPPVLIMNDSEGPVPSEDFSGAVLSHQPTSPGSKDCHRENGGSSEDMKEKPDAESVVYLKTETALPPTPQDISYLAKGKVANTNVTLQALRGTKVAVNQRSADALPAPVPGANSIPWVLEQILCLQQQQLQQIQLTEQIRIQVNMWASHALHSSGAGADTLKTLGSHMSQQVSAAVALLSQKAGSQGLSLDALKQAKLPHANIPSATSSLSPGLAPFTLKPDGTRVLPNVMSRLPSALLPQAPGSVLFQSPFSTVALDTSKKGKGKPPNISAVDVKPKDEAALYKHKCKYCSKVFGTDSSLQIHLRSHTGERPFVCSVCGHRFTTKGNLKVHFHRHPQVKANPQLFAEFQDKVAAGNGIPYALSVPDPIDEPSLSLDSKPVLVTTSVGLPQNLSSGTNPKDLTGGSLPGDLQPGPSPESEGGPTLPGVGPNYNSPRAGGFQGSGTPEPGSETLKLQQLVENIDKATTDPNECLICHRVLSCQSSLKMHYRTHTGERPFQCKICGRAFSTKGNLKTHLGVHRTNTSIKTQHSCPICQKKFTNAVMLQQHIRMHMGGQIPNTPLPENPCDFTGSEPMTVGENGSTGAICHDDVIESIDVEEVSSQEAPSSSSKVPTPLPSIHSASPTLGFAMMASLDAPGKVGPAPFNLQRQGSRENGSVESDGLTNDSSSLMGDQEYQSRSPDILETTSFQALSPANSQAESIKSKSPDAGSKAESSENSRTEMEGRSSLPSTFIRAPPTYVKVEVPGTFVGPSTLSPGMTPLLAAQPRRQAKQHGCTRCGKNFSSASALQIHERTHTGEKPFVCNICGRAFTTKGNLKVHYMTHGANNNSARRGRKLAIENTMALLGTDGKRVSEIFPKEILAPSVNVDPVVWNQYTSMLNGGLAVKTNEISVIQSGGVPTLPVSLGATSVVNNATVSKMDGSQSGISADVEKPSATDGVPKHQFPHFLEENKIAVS
Method: universal PBM
Molecule type: double-stranded DNA, one strand shown
Sample: in vitro
Tested at: 600 nM
Notes: 8-mer, flanks averaged, mean of replicates
Reading: higher = stronger binding
| Strand | E-score |
| --- | --- |
| AAACCAGC | -0.0712 |
| AAAAGCAG | -0.0898 |
| AATGATGT | 0.237 |
| AGTGTCAT | 0.202 |
| ACCGTTTC | -0.13 |
| CAGGTTGA | -0.144 |
| ATGTCCGC | -0.1 |
| CGGAACTC | -0.218 |
| GTCAGCTA | -0.0912 |
| TAGCTCCA | -0.0205 |
| CTCTTCCC | -0.0569 |
| CCCGATGA | 0.0167 |
| ATTTTTAG | 0.206 |
| CCTGCAAA | -0.0523 |
| AGTCTCCG | -0.136 |
| CTCCAGAC | -0.0161 |
| AGTGGGAG | -0.153 |
| CTTTTTCA | 0.252 |
| ATCCGAGC | -0.085 |
| AGATCCAG | -0.161 |
| CAACCGCA | -0.106 |

Set 2
Target: Interferon regulatory factor 5, full length, phosphomimetic (IRF5, Homo sapiens, UniProt Q13568-2, residues 1-514, S451D/S453D/S456D/S462D)
Method: protein-binding microarray
Molecule type: double-stranded DNA, one strand shown
Sample: in vitro
Tested at: 940 nM top
Notes: 60-bp whole probe
Added: salmon DNA 0.4 mg/ml
Relative to: random background probes
Reading: higher = stronger binding
All sequences stand within: GCCTAGCAC … GTCTTGATTCGCTTGACGCTGCTG
| Strand | fitted relative affinity [z-score] |
| --- | --- |
| CACGGTCTCGGACTGGGGACGTGCTAG | 0.667 |
| GACGGTGTCGGGTTTCGGGACGTGCTA | 1.81 |
| TTAGGACTGCTTATCCTTTTGTGCTAG | -0.106 |
| TTAGGTAACGACACTGGGTTAGTGCTA | -0.0765 |
| TCACATACTGATTTCCAACTGTGCTAG | 0.723 |
| TTAGATTTCAGACTGGATTGGTGCTAG | -0.184 |
| TTAGGTTTCGGGTAGCGGTTAGTGCTA | 10.9 |
| TCAACTCTTCCTTTACTACTGTGCTAG | 1.83 |
| GACGGTTTCAGACTGGAGACGTGCTAG | 1.32 |
| TTAGATATCGGATATCGATTAGTGCTA | 0.173 |
| CACCATCTAGTTCTGCTTTGGTGCTAG | 0.374 |
| TTAGATCTCGGTTTCGGTTAGTGCTAG | 8.72 |

Set 3
Target: CCNE1, cyclin fold, Cln2 fusion (human)
Method: yeast growth competition, sequencing
Sample: yeast
Notes: weak parent motif
Relative to: not given
Reading: higher = stronger binding
Parent: CDC6 docking peptide (human); TLKGRRLVFDNQL
| Variant | normalised enrichment score |
| --- | --- |
| L13S | 0.574 |
| L7G | -0.126 |
| R5K F9L | 0.627 |
| Q12L | 1.12 |
| V8R | 0.48 |
| R5Y | 0.0505 |
| F9M | 0.233 |
| Q12I | 0.994 |
| R6M | 1.04 |
| Q12G | 1.34 |
| G4P | 1.84 |
| L7E | 0.0263 |
| F9I | 0.772 |
| T1G | 0.383 |
| R5Q | -0.119 |
| L13P | 0.985 |
| R6T | 0.487 |
| K3S | 0.529 |
| V8G | 0.107 |
| R6E | -1.07 |
| L13W | 0.781 |
| Q12Y | 1.45 |
| K3V | 1.73 |
| K3P | 0.00266 |
| R5A L7A | 0.463 |

Single results of other studies
| Substance | target | assay | test system | conditions | how to read | endpoint | value |
| --- | --- | --- | --- | --- | --- | --- | --- |
| PhoQ, residues 284 288 289 292 302 303 SMYGEC | PhoP, residues 12 14 15 18 19 NHFIF (Escherichia coli, UniProt P23836) | Sort-seq, measured: YFP reporter | E. coli | PhoQ-PhoP variant library, added: 10 µM Mg2+ | relative to: high Mg2+ state, higher = stronger signaling | fold induction | 9.83 |

A few entries again (set 1):
| Strand | E-score |
| --- | --- |
| CTCTTCCC | -0.0569 |
| AATGATGT | 0.237 |
| CCTGCAAA | -0.0523 |
